Results pooled from the literature.
A part holds a random share of what one study measured. Values joined by “and” are separate records of one study, mostly repeats; a detail may differ.
UniProt O43283, sequence (whole entry, looked up): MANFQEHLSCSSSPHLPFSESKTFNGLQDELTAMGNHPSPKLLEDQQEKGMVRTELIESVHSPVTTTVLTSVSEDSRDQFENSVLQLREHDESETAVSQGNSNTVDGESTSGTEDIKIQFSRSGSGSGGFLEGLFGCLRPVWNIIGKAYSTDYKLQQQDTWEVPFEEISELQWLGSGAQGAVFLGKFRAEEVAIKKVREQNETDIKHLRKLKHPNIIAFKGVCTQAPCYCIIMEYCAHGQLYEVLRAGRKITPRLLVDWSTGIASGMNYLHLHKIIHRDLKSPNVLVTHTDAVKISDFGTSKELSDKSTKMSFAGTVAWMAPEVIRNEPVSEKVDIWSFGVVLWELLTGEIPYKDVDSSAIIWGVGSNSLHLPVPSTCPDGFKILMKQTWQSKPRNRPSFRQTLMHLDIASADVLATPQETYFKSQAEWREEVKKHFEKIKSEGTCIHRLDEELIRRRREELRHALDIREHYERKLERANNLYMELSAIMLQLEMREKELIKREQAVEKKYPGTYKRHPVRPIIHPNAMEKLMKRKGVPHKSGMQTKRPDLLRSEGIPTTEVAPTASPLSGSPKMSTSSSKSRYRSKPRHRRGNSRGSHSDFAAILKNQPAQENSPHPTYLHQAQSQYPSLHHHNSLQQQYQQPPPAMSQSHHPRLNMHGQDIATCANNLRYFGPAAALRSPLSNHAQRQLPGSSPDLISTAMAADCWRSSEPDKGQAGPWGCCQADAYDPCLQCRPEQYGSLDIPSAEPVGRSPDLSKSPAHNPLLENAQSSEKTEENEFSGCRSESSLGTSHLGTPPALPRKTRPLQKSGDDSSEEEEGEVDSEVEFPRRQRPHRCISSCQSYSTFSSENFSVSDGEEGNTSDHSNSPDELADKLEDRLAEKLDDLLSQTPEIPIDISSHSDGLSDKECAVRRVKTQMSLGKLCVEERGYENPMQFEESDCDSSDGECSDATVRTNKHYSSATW
UniProt Q6PHR2, sequence (whole entry, looked up): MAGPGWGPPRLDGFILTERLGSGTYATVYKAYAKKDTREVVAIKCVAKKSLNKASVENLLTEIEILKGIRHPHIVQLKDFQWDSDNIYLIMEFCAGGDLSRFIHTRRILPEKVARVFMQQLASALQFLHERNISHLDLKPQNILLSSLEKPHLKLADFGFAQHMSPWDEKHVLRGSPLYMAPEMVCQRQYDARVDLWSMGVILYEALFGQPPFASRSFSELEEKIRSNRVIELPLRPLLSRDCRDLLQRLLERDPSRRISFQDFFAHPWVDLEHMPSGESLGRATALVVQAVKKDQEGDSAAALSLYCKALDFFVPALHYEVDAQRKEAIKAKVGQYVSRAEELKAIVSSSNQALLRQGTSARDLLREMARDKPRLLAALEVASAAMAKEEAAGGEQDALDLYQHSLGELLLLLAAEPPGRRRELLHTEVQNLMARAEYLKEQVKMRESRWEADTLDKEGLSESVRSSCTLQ
UniProt Q9Y243, sequence (whole entry, looked up): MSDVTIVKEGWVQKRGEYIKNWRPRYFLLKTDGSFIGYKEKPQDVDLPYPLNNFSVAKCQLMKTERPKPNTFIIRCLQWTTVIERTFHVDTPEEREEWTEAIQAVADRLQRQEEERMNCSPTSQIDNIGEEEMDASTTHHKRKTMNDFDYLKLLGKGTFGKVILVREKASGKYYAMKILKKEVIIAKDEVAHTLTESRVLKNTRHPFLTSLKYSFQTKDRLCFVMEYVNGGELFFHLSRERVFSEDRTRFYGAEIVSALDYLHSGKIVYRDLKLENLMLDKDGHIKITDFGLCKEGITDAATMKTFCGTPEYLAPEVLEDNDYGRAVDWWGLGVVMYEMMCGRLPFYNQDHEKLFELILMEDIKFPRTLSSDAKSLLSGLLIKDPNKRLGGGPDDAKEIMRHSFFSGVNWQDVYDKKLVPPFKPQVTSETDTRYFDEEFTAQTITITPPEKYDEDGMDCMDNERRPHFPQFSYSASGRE

Set 1
Target: Beta-1 adrenergic receptor (ADRB1, Homo sapiens, UniProt P08588)
UniProt P08588, sequence (whole entry, looked up): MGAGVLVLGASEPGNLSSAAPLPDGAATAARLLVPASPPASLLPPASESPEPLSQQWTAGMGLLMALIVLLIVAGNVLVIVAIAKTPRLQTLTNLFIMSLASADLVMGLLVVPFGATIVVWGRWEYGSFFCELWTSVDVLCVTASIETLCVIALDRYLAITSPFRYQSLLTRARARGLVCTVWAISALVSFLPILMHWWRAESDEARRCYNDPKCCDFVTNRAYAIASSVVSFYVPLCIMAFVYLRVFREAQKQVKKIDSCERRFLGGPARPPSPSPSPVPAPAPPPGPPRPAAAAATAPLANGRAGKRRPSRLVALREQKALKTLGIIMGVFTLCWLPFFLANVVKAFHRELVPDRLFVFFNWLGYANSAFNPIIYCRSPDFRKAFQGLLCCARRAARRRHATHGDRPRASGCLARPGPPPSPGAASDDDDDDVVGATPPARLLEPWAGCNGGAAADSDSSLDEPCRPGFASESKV
Mode: antagonist
Measurement: IC50
Cc1ccc2c(Cn3nnc(-c4cccc(Cl)c4)n3)cc(=O)oc2c1: ≥ 100 µM
CC1(C)CC(=O)c2cc(C(=O)Nc3ccc(F)cc3)c(O)nc2C1: ≥ 100 µM
Cc1noc2c(-c3cnn(Cc4ccccc4)c3)cc(-c3cccnc3)nc12: ≥ 100 µM
OCCc1ccc(O)cc1: ≥ 100 µM
Cc1ccc(C(=O)Nc2ccc(Oc3cc4cnn(C)c4cc3-c3cn[nH]c3)c(F)c2)c(=O)n1-c1ccc(F)cc1: ≥ 100 µM

Set 2
Organism: Sarcocystis neurona
Observed: parasite growth
Tested at: 10 µM
Time: 96 h
Measurement: inhibition
CCC(=O)NS(=O)(=O)c1ccc(-c2c(-c3ccccc3)noc2C)cc1: -6.9%
COc1c2occc2cc2ccc(=O)oc12: -12.5%
O=C(C1CCCCC1)N1CC(=O)N2CCc3ccccc3C2C1 (stereo not shown): -0.565%
c1ccc2c(CC3=NCCN3)cccc2c1: -5.4%
CC(C(=O)O)c1ccc(CC2CCCC2=O)cc1 (stereo not shown): -12.5%

Set 3
Cell line: mouse MPNST tumor cells
Method: high-content immunofluorescence imaging
Item: nuclear SOX9
Tested at: 10 µM
Time: 12 h
Setting: mean of 2 replicates
Reference: DMSO control
Reading: higher = more nuclear SOX9
Measurement: nuclear SOX9 intensity
Cc1cc(Nc2nc(N[C@@H](C)c3ncc(F)cn3)ncc2Cl)[nH]n1: 127 % of DMSO
C1CNCCN1: 103 % of DMSO
O=C(O)c1ccccc1Nc1ccc(CCc2ccc(Cl)c(Cl)c2)cc1: 102 % of DMSO

Set 4
Species: mouse
Medium: microsomes or S9
Tested at: 2 µM
Time: 0.5 h
Measurement: remaining compound
COCCN(Cc1ccn(C)c(=O)c1)Cc1cccs1: 0.0465%
CC1=C2C(=NC3=C(C(=O)CCC3)C2c2ccc(C#N)cc2)N(c2nc(C)cc(C)n2)N1 (stereo not shown): 59%
CC(CCc1ccco1)NC(=O)c1cc(S(=O)(=O)N(C)C)c(Cl)cc1Cl (stereo not shown): 3.18%
Cc1cc(C(C)(C)C)cc(C)c1CS(=O)(=O)CCCO: 18.4%
COc1ccc(OC)c(CNC(=O)C23CCCC=C2N(C2CCCC2)C(=O)CC3)c1 (stereo not shown): 0.437%

Set 5
Target: DNA polymerase theta, ATPase domain (POLQ, Homo sapiens, UniProt O75417)
UniProt O75417, sequence (whole entry, unmodified, looked up): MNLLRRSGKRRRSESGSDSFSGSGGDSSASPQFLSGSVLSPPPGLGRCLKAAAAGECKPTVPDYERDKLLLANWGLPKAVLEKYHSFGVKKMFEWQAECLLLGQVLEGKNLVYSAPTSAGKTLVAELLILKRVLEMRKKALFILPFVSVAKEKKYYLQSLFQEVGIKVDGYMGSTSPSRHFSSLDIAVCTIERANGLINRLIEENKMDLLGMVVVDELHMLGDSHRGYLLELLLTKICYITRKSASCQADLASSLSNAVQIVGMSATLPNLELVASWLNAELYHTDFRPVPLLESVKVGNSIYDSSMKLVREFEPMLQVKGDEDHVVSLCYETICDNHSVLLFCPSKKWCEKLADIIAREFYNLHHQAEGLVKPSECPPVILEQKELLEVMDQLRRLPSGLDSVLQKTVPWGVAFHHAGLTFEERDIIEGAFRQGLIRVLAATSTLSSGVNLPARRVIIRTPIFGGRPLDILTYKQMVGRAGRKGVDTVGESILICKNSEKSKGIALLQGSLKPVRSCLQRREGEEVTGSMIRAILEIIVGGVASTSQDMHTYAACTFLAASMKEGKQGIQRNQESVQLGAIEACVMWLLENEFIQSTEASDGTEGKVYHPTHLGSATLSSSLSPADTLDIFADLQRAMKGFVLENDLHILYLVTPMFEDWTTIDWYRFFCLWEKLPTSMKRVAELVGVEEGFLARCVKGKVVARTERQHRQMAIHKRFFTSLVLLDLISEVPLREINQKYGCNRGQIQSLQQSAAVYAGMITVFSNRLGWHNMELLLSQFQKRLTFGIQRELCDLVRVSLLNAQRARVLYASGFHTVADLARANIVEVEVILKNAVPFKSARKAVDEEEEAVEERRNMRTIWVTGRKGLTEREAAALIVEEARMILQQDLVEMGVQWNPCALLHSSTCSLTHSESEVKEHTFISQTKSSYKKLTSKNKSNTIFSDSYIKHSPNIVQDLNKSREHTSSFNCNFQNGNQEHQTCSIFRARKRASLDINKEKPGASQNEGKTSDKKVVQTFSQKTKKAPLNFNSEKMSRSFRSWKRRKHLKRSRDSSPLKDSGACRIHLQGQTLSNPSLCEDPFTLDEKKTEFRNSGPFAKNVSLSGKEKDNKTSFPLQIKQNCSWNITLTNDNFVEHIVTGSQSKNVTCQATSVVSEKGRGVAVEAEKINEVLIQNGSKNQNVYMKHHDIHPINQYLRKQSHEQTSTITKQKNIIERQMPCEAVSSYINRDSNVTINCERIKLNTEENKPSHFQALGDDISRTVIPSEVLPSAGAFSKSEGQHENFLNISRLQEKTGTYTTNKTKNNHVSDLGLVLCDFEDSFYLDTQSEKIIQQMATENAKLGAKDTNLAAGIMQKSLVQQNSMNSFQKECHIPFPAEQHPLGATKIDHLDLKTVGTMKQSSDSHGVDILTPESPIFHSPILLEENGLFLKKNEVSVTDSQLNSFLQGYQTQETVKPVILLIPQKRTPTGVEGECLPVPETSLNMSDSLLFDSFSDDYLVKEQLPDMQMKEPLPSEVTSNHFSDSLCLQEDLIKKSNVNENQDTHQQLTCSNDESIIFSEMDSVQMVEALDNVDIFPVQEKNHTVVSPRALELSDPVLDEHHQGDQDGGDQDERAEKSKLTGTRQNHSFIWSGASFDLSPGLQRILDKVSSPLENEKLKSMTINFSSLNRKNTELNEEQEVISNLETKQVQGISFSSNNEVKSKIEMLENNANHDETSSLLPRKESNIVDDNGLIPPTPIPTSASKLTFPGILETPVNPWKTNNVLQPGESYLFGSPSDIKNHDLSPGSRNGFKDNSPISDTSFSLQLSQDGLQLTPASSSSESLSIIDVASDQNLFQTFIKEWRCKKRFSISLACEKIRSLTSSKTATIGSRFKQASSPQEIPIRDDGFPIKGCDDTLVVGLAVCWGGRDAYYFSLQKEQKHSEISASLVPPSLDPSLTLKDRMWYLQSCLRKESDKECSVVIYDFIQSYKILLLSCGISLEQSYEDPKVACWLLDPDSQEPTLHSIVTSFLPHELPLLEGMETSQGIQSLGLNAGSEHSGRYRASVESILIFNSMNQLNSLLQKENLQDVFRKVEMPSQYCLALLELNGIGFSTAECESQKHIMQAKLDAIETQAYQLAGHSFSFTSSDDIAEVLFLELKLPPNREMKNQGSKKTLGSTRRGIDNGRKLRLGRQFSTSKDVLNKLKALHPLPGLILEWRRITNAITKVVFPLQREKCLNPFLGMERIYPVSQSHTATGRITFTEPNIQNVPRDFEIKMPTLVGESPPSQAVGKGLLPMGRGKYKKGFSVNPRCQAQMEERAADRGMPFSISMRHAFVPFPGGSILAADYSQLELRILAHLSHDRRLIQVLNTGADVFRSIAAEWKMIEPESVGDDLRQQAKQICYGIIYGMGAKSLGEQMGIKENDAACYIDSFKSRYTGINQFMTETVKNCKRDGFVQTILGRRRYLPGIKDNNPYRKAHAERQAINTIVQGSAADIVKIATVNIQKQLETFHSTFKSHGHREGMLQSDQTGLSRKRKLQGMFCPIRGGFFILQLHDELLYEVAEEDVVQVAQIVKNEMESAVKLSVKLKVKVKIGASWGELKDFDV
Observed: enzyme activity
Mode: inhibitor
Tested at: 77 µM
Reference: untreated
Measurement: remaining activity
CC(=O)Oc1ccc(C(c2ccc(OC(C)=O)cc2)c2ccccn2)cc1: 96.9% and 107%
NC(=NCCCCCCN=C(N)/N=C(\N)Nc1ccc(Cl)cc1)/N=C(\N)Nc1ccc(Cl)cc1: 132% and 101%
Cn1c(=O)[nH]c2ncn(C)c2c1=O: 101%

Set 6
SMILES: CS(=O)(=O)NCC[C@H](NC(=O)c1cncc2c1cnn2-c1ccc(F)cc1)c1ccnc(S(C)(=O)=O)c1
Observed: cell-free assay
Method: competition with immobilised ligand
Tested at: 1 µM
Measurement: remaining binding
Cyclin-dependent kinase 8 (CDK8, Homo sapiens, UniProt P49336): 100%
Tyrosine-protein kinase ABL1, phosphorylated (ABL1, Homo sapiens, UniProt P00519, T315I): 100%
Dual specificity mitogen-activated protein kinase kinase 5 (MAP2K5, Homo sapiens, UniProt Q13163): 92%
Mitogen-activated protein kinase 7 (MAPK7, Homo sapiens, UniProt Q13164): 100%
Dual specificity mitogen-activated protein kinase kinase 3 (MAP2K3, Homo sapiens, UniProt P46734): 100%
Rhodopsin kinase GRK7 (GRK7, Homo sapiens, UniProt Q8WTQ7): 100%
Misshapen-like kinase 1 (MINK1, Homo sapiens, UniProt Q8N4C8): 100%
Activin receptor type-1 (ACVR1, Homo sapiens, UniProt Q04771): 100%
RAC-gamma serine/threonine-protein kinase (AKT3, Homo sapiens, UniProt Q9Y243): 93%
Serine/threonine-protein kinase TAO2 (TAOK2, Homo sapiens, UniProt Q9UL54): 85%
Macrophage-stimulating protein receptor (MST1R, Homo sapiens, UniProt Q04912): 99%
Testis-specific serine/threonine-protein kinase 3 (TSSK3, Homo sapiens, UniProt Q96PN8): 100%
Ribosomal protein S6 kinase alpha-1, C-terminal kinase domain (RPS6KA1, Homo sapiens, UniProt Q15418): 100%
Mitogen-activated protein kinase kinase kinase 13 (MAP3K13, Homo sapiens, UniProt O43283): 100%
Hormonally up-regulated neu tumor-associated kinase (HUNK, Homo sapiens, UniProt P57058): 100%
Mitogen-activated protein kinase kinase kinase 9 (MAP3K9, Homo sapiens, UniProt P80192): 97%
Ephrin type-A receptor 6 (EPHA6, Homo sapiens, UniProt Q9UF33): 100%
Proto-oncogene tyrosine-protein kinase ROS (ROS1, Homo sapiens, UniProt P08922): 94%
Tyrosine-protein kinase JAK2, JH1 (JAK2, Homo sapiens, UniProt O60674): 100%
Tyrosine-protein kinase Lck (LCK, Homo sapiens, UniProt P06239): 100%
Serine/threonine-protein kinase 33 (STK33, Homo sapiens, UniProt Q9BYT3): 87%
Ribosomal protein S6 kinase alpha-5, N-terminal kinase domain (RPS6KA5, Homo sapiens, UniProt O75582): 88%
Serine/threonine-protein kinase WNK2 (WNK2, Homo sapiens, UniProt Q9Y3S1): 100%
Ribosomal protein S6 kinase beta-1 (RPS6KB1, Homo sapiens, UniProt P23443): 86%
Tyrosine-protein kinase receptor UFO (AXL, Homo sapiens, UniProt P30530): 95%

Set 7
SMILES: CC(C)n1cnc(-c2ccc(F)cc2)c1-c1ncc(C(=O)Nc2ccc(N3CCN(C)CC3)cc2)[nH]1
Method: phase 2a clinical trial
Species: patients with idiopathic pulmonary fibrosis
Measurement: patients with treatment-related adverse events
30 mg once daily, without standard of care: 57.1%
60 mg once daily, without standard of care: 85.7%
30 mg once daily, with: standard of care: 45.5%

Set 8
Structure (SMILES): O=C(Nc1cnn(-c2csc(C(=O)NC3COC3)c2)c1)Nc1c(F)cccc1Cl
Observed: enzyme activity
Tested at: 5 µM
Reference: untreated control
Measurement: remaining activity
Calcium/calmodulin-dependent protein kinase kinase 1 (CAMKK1, Homo sapiens, UniProt Q8N5S9): 93.6%
Serine/threonine-protein kinase ULK3 (ULK3, Homo sapiens, UniProt Q6PHR2): 75%
Dual specificity testis-specific protein kinase 1 (TESK1, Homo sapiens, UniProt Q15569): 91%
